Measurements collected from several papers.
A part holds a random share of what one study measured. Changes are numbered by the printed parent chain.

Series 1 — target: CCND2, cyclin fold, Cln2 fusion (human); technique: yeast growth competition, sequencing; medium: yeast; notes: weak parent motif; reference: not given; direction: higher = stronger binding
Parent: CUX1 docking peptide (human); SRIRRELFIEEIQ
Substitution | normalised enrichment score
L7A | 0.0563
I9A | -0.205
E10A | 0.657
R2A | 0.00812
R5K | 0.392
R5K F8L | 0.662
S1A | 0.67
E11A | 0.489
R5A L7A | -0.106

Series 2 — technique: RNA Bind-n-Seq; molecule type: RNA; medium: in vitro; concentration: 100 nM; reference: input RNA pool; direction: higher = stronger binding
Target: RING finger protein unkempt homolog, zinc fingers 1-6, SBP tag (UNK, Homo sapiens, UniProt Q9C0B0, residues 30-357)
UniProt Q9C0B0, sequence (30-357, looked up): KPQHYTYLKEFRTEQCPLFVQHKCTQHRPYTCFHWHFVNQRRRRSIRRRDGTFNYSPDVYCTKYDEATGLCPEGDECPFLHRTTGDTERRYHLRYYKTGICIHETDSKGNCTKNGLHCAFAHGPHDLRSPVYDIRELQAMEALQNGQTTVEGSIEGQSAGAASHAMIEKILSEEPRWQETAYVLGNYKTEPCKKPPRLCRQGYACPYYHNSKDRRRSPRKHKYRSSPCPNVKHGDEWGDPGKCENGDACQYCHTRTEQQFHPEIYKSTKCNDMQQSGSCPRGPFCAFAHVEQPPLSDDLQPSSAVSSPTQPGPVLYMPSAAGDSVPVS
Notes: RNA with constant flanks, vertebrate orthologous sites, ends assumed
Shared flanks, not repeated: GGGAGUUCUACAGUCCGACGAUC … CAACAGAGGAUUGAGCAUCA
Oligonucleotide | bound/input enrichment
UUGGGACCAACUCUCCAAAUAGGAAUAGUAGUAAAAAAAAUAAGCAAAAUGAUAUUUGUAUAGAAAAAACAGAAGUUAAAUCAUGUAAAGUAAAUGCUGCCAGUGUUCCAGGCCCUAAAG | 2.11 ratio
CAUUAACACACGAAAUGUCUCCAGGGGGGUAUUAGAUUUGAUUUCUUACAUAUAAAACAAACCAACCAACCAUUUUUAAAGUAGAAGAGGGUUUUAGAUAGUAAAUGAAAUAUUCUUUUU | 1.56 ratio
UCCUCAACUUGUUCUAGCUGGUGAUCCUUCAAAGUUGGGUCAGGCAUUAGUGCUAGGUACUAGAAAUGUUCAUUUCUCUGUUGCCAUUGAUCAGAGAGACAGACAUUAAAAAACAGUAAC | 0.479 ratio
UGCAAACUUCUCCUUAAACUGGUAUUGUCAGACAAUAGGAAGACUUUGUUUUUUUCACAGUUUAGUGCCUGGUUUCUACAUGGAAGACUAAACUCAUGCUUAUAGCUAAAUGUGGUCUUU | 0.175 ratio
AUAAUCACUCUAAUUGUAAUCUGAAUAAAGUGUAACAUUGUGUAGCCUUUUUGUAUAAACUAGACAAAAUAGAAUGGUCCAAUUAGUUUCCUUUUUAAUAUGCUUAAAAUAAGCAGGUGA | 1.63 ratio
CAACGUGUUCUAGCUUGUGAUCCUUCAAAGACAGACGGGUUAUGCGUUAAUUCUAGGUACUAGAAAUGUUCACUUCUCUCUUUCCACUGAUCAGAGAAACAGGCAUCAAAAACAGAAAUA | 0.569 ratio
UGAGGGAGAGAUUUCUGUGCUUUCUCAUAUUUAAUUUGCUGUUUUUAAGGUAUUCCAACCUAGAGUUUUUGAUGGAACUGAUAUAUUGACAGUUCUCACCUAAGUCCUUUUAUAAAGAAU | 1.04 ratio
UUACAGUCAUUGAUGGACUCUAUUUUUUUAUUAUUACUUGGACCUUGGUCGUUUUUAUACUAGCAACGGAAAAUGUCUUGUUUUAAUUUGUUUUUUGGGGGGUGCGGGGUGGGAAGUGUC | 1.12 ratio
CUGAAGCUUUGUGUUUGGCUGCACCUGCAUAAGCUGCUACAAAUAGAAUAAAGAAUUUCAUAGCCUGUAUCUAUCAUUUAGAUGCAUGGGAAAAUGGGCUUUGCACACAAUGGGUUUGGA | 2.19 ratio
GCACAUGCCGCUAUCACCAAAAGCAAAUUGCCAUUUUUCAAAUUUCAUCCAGAGCCGUUUUAGUGUUUCCUAUUCCCUGCGCUUCCCAUUACUUUCAGUGAUGAAAGUUCUCCUCUGACA | 1.54 ratio
GAUCAAUAGGAUUACAUAAUAUUAAAGUUGCAGUUGAACAGAUAUCCCAGUAUGUGUUGAUAGUUACUAACGGAAUUAUAGCUGGUAUUGCCUUGUAUUUAUAGCCCUUUUUCAGGUUUC | 1.28 ratio

Series 3 — technique: RNA Bind-n-Seq; molecule type: RNA; medium: in vitro; concentration: 1 µM; notes: whole 134-nt RNA, ends assumed; with: 150 mM KCl; reference: input library; direction: higher = stronger binding
Target: Ras GTPase-activating protein-binding protein 1, C-terminal RGG region (G3BP1, Homo sapiens, UniProt Q13283)
UniProt Q13283, sequence (whole entry, looked up): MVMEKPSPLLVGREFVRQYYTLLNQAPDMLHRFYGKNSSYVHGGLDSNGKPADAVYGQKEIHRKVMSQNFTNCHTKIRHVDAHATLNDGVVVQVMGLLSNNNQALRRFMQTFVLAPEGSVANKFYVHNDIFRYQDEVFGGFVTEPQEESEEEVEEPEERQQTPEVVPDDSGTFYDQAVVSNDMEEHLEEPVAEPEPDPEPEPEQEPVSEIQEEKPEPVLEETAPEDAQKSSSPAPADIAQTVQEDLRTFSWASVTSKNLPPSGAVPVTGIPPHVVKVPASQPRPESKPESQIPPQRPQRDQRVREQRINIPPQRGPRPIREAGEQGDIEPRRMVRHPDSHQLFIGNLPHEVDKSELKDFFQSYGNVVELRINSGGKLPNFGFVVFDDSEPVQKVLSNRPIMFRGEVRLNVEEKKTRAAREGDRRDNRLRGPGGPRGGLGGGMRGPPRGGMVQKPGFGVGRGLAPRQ
Shared flanks, not repeated: GGGAGUUCUACAGUCCGACGAUC … UGGAAUUCUCGGGUGUCAAGG
Oligonucleotide | log2 enrichment
CUGUGCUACACAUCGUAUGUACCGAAUCGGGAAAAAAAGGGAAAAAAAGGGGAAAAAAAGGGAAAGUAUUAUGUUACGCCGUUCGGAUCU | -1.18
CCUGUGCUACACAUCGUAUGUACCGAAUCGGGAAAAAAGGGAAAAAAGGGAAAAAAGGGGAAAGUAUUAUGUUACGCCGUUCGGAUCUGC | -1.56
UCCUCAAGUCCUGUGCUACACAUCGUAUGUACCGAAUCGGAGGGAGGAGGGAAAGUAUUAUGUUACGCCGUUCGGAUCUGCACUUCCAGC | -0.996
UGGCCCUGGUGGCAUGCGGGGAGGAAGAGGUCGCCUCAUGGAUCGUGGUGGUCCCGGUGGAAUGUUCAGAGGUGGCCGUGGUGGAGACAG | 1.69
CUGUGCUACACAUCGUAUGUACCGAAUCGGUUUUUUUGGGUUUUUUUGGGGUUUUUUUGGGAAAGUAUUAUGUUACGCCGUUCGGAUCUG | -1.25
CUGUGCUACACAUCGUAUGUACCGAAUCGGGGUUUUUGGGGAAAAAGGGGAAAAAAAGGGGAAAGUAUUAUGUUACGCCGUUCGGAUCUG | 0.129
UAACUUUAGAGGAGCAUCUGAUGGAUAUGGCAGUGGACGUGGAUUUGGGGAUGGCUAUAAUGGGUAUGGAGGAGGACCUGGAGGUGGCAA | 0.459
AAGUCCUGUGCUACACAUCGUAUGUACCGAAUCGGGAAAGGGUUUGGGAAAAAGGGAAAGUAUUAUGUUACGCCGUUCGGAUCUGCACUU | 0.848
AAGUCCUGUGCUACACAUCGUAUGUACCGAAUCGGGGAAAGGAAAGGGGAAAGGGGAAAGUAUUAUGUUACGCCGUUCGGAUCUGCACUU | -0.243
CAAGUCCUGUGCUACACAUCGUAUGUACCGAAUCGGUUUUUGGAAAAAGGUUUGGAAAGUAUUAUGUUACGCCGUUCGGAUCUGCACUUC | -2.16

Series 4 — target: CEP164, C-terminal peptide (human); technique: DHFR complementation, deep sequencing; medium: yeast; reference: wild type; direction: higher = weaker binding
Notes: single substitutions, model-inferred values
Parent: PDZK1, PDZ domain 2 (human); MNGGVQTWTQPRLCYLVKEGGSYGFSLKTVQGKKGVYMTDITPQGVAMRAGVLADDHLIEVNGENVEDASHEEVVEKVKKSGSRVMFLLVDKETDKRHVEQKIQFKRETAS; partner HNRVKVYRF
Substitution | binding free energy change
K34E | 0.192 kcal/mol
M38P | 1.87 kcal/mol
K80T | 0.639 kcal/mol
G20C | 0.235 kcal/mol
G35M | 0.691 kcal/mol
F105M | -0.241 kcal/mol
H57Y | -0.216 kcal/mol
T9K | -0.119 kcal/mol
E93P | 0.0936 kcal/mol
L16Y | 1.79 kcal/mol
L58S | -0.0873 kcal/mol
L27E | 1.35 kcal/mol
Y15C | -0.029 kcal/mol
V52R | 2.15 kcal/mol
G20W | 0.187 kcal/mol
V74C | 0.142 kcal/mol

Series 5 — technique: DHFR PCA, deep sequencing; medium: yeast; with: (+)-ABA 0.0091 µM; reference: wild-type fitted maximum; direction: higher = stronger binding
Target: ABI1, truncated, D143A, DHFR fusion (Arabidopsis thaliana)
Notes: methotrexate growth selection, single substitutions
Parent: PYL1, truncated, DHFR fusion (Arabidopsis thaliana); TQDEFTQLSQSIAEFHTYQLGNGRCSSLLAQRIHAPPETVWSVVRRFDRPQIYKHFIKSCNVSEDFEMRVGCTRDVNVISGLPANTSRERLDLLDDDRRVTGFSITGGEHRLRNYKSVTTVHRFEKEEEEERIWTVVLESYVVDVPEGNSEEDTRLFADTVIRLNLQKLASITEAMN; partner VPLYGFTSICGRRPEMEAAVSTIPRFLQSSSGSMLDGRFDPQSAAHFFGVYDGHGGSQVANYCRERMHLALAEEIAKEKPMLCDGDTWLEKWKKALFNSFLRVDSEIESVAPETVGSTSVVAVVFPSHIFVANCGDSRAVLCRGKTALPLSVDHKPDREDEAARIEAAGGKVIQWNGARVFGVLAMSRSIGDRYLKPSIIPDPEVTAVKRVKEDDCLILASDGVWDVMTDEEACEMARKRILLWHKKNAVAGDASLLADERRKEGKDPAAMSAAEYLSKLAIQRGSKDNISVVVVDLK
Substitution | relative binding score
P50E | 1.74%
M68E | -1.3%
R111K | 14.8%
L91K | -4.93%
L8M | 43%
G107S | 32.4%
V78H | 55.7%
Y141G | -3.58%
Y18Q | 4.11%
K168P | 1.89%
E64K | 48.5%
S104I | 0.485%
E151I | 37.8%
P37I | -1.42%
R45L | -1.1%
N114F | -5.34%
E139C | 6.49%
R132E | 56.3%
H55I | 20%
V76D | -2.51%
R113A | 4.58%
S80Q | 5.24%
I52D | 41.2%

Series 6 — technique: Sort-seq; refers to: YFP reporter; medium: E. coli; notes: PhoQ-PhoP variant library; with: 10 µM Mg2+; reference: high Mg2+ state; direction: higher = stronger signaling
Substance: PhoQ, residues 284 288 289 292 302 303 NLMGRA
target | fold induction
PhoP, residues 12 14 15 18 19 LHTVL (Escherichia coli, UniProt P23836) | 56.1
PhoP, residues 12 14 15 18 19 TQAML (Escherichia coli, UniProt P23836) | 21.1
PhoP, residues 12 14 15 18 19 NQCAL (Escherichia coli, UniProt P23836) | 15.7

Repeated from above (series 5):
Substitution | relative binding score
S104I | 0.485%
E151I | 37.8%
P37I | -1.42%
R45L | -1.1%
N114F | -5.34%
E139C | 6.49%
R132E | 56.3%
H55I | 20%
V76D | -2.51%
R113A | 4.58%
S80Q | 5.24%
I52D | 41.2%
